Measurements from different studies.
Numbered parts are unrelated; each lists some results of a single study. Substitutions count along the parent as printed.

Study 1 — method: protein binding microarray; molecule type: double-stranded DNA, one strand shown; medium: in vitro; tested at: not given; reference: not given; direction: higher = stronger binding
Target: Histone acetyltransferase KAT6A, both winged helices, GST fusion (KAT6A, Homo sapiens, UniProt Q92794, residues 1-181)
Setting: 8-mer, flanks averaged, mean of 2 arrays, mostly near background
Target sequence (chain): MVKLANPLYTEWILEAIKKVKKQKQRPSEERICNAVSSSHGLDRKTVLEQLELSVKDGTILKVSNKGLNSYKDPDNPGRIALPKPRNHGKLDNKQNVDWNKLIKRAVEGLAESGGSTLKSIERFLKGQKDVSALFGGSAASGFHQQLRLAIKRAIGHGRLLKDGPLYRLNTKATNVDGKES
| Sequence | E-score |
| --- | --- |
| CAAGGCTA | -0.0257 |
| ACTGATGA | -0.191 |
| GACCCGGA | 0.127 |
| ATTCTTAA | -0.157 |
| GACAAGAC | 0.0621 |
| ACCTGTAA | -0.024 |
| ATGCGAAG | 0.00306 |
| ATGAAAAT | -0.118 |
| AGAGTAGA | -0.0869 |
| TGCTCAAA | -0.139 |
| CTCTTATC | -0.0887 |
| AAGTCGAG | -0.138 |
| GGAATCCA | -0.0112 |
| AGCTCTGC | -0.141 |
| ATCAACAG | 0.00522 |
| ACGACCGG | 0.125 |
| GCACTAGA | 0.0425 |
| CGCACGCG | 0.346 |

Study 2 — target: MAFK, bZIP domain (human); method: DHFR protein complementation; medium: yeast; reference: wild-type JUN-FOS pair; direction: higher = stronger binding
Setting: single substitutions, most at no-binding floor
Starting sequence: JUN, bZIP domain (human); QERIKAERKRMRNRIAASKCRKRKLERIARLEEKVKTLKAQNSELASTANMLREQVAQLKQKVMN; partner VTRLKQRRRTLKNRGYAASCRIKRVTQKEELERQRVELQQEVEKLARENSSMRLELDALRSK
| Substitution | binding fitness [natural log] |
| --- | --- |
| E32A | -1.39 |
| L38S | -1.52 |
| R53T | -1.48 |
| E32W | -1.49 |
| N42F | -1.45 |
| N42C | -1.31 |
| S47E | -1.13 |
| T48C | -1.46 |
| I28F | -1.4 |
| L52A | -1.55 |
| T37P | -1.53 |
| R53N | -1.52 |
| S47P | -1.51 |
| K34P | -1.48 |
| V35I | -1.5 |
| T37Q | -1.34 |
| K34E | -1.57 |
| V56Y | -1.46 |

Study 3 — target: CCNF, cyclin fold, Cln2 fusion (human); method: yeast growth competition, sequencing; medium: yeast; setting: strong parent motif; reference: not given; direction: higher = stronger binding
Starting sequence: RBL1 docking peptide (human); GSAKRRLFGEDPP; partner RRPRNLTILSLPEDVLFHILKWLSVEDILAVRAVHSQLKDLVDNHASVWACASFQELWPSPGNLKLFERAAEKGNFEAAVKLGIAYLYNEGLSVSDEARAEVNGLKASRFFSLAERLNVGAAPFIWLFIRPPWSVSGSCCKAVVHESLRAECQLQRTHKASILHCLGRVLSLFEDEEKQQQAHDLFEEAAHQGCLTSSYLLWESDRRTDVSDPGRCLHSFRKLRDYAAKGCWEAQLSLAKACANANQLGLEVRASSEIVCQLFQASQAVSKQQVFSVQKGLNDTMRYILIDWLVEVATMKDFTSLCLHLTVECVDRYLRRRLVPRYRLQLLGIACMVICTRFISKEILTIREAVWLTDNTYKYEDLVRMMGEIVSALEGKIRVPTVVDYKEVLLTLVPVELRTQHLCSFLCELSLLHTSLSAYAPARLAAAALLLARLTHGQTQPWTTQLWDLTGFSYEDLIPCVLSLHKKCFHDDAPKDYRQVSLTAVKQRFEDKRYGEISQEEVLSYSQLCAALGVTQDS
| Substitution | normalised enrichment score |
| --- | --- |
| GSAKRRIFGEDPP [L7I] | 4.34 |
| GSDKRRLFGEDPP [A3D] | -0.438 |
| GSAKRRLFGEDPD [P13D] | 6.84 |
| GSAKRRLFGEDPT [P13T] | 6.89 |
| GSAKRRRFGEDPP [L7R] | -0.602 |
| GSAKRRLFEEDPP [G9E] | 7.25 |
| GSAKRRLFGEDFP [P12F] | 6.91 |
| GSAKRRPFGEDPP [L7P] | 1.9 |
| HSAKRRLFGEDPP [G1H] | 8.22 |
| DSAKRRLFGEDPP [G1D] | 6.38 |
| GSAKRRLFGENPP [D11N] | 7.36 |
| GSAKARAFGEDPP [R5A L7A] | -0.0917 |
| GSPKRRLFGEDPP [A3P] | 2.94 |
| GSAKRSLFGEDPP [R6S] | 4.73 |
| GYAKRRLFGEDPP [S2Y] | 7.21 |
| ASAKRRLFGEDPP [G1A] | 8.32 |
| GSAKRRLFGEDSP [P12S] | 7.81 |
| GSAKRELFGEDPP [R6E] | 2.96 |
| GPAKRRLFGEDPP [S2P] | 5.77 |
| GSAKRRLFGEDPV [P13V] | 8.77 |
| GSAKRRLWGEDPP [F8W] | 3.46 |
| GSIKRRLFGEDPP [A3I] | 6.92 |
| GSAKRRLFGEDPK [P13K] | 6.48 |
| GSAKRRLFGEDPL [P13L] | 8.32 |

Study 4 — target: CRIPT, C-terminal peptide; method: DHFR complementation, deep sequencing; medium: yeast; reference: wild type; direction: higher = weaker binding
Setting: single substitutions, model-inferred values
Starting sequence: ERBIN, PDZ domain 1 (human); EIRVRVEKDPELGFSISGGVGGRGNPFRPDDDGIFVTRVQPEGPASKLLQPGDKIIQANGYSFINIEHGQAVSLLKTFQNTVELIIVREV; partner TKNYKQTSV
| Substitution | binding free energy change [kcal/mol] |
| --- | --- |
| P41M | 0.318 |
| R38F | 0.0902 |
| L49G | 0.821 |
| H68G | 1.44 |
| P41W | 0.492 |
| T81F | 0.281 |
| V20S | -0.0799 |
| L49Q | 0.739 |
| I2L | -0.0878 |
| R88N | 0.413 |
| E1C | 0.238 |
| F35G | 0.458 |
| G33R | 1.21 |
| V90M | -0.0926 |
| K47E | 0.0398 |
| G19A | 1.13 |
| V39R | 0.668 |
| G21V | 0.596 |
| K54S | 0.879 |
| G43V | 0.778 |
| A58P | 0.901 |

Study 5 — method: DHFR PCA, deep sequencing; medium: yeast; together with: (+)-ABA 0.0091 µM; reference: wild-type fitted maximum; direction: higher = stronger binding
Target: ABI1, truncated, D143A, DHFR fusion (Arabidopsis thaliana)
Setting: methotrexate growth selection, single substitutions
Starting sequence: PYL1, truncated, DHFR fusion (Arabidopsis thaliana); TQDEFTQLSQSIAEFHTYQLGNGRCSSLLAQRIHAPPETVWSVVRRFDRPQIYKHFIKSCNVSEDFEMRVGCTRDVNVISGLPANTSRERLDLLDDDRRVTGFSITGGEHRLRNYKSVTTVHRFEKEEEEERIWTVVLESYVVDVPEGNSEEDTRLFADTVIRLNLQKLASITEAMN
| Substitution | relative binding score |
| --- | --- |
| I52M | 39.3% |
| V143G | -1.04% |
| P83T | 23.5% |
| K58A | 7.75% |
| V137A | 1.82% |
| N77A | 39.9% |
| M176I | 7.05% |
| E131G | 56% |
| I172L | 19.9% |
| G102I | -2.85% |
| Q167G | 3.01% |
| S87R | 66.9% |
| D159Q | -13.9% |
| L169R | -1.61% |
| E125Y | 25.3% |
| A158W | 9.29% |
| L156M | 23.8% |
| V70Q | -3.17% |
| S80E | 4.12% |
| V143T | 11.8% |
| I33K | -9.28% |
| H122T | 1.25% |
| D153I | -4.47% |
| L82V | 9.62% |
| T106Q | 13.9% |

Study 6 — method: RNA Bind-n-Seq; molecule type: RNA; medium: in vitro; tested at: 365 nM; reference: no-protein control; direction: higher = stronger binding
Target: RNA binding protein fox-1 homolog 2, RRM domain, GST-SBP tag (RBFOX2, Homo sapiens, UniProt O43251-10, residues 100-194)
Setting: natural RNA segment, single round, ends assumed
Constant ends, left off below: GGGAGUUCUACAGUCCGACGAUC … UGGAAUUCUCGGGUGCCAA
Residues (chain): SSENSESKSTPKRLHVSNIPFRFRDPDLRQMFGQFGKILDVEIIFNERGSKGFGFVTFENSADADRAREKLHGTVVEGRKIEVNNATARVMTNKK
| Sequence | RBNS enrichment (R) |
| --- | --- |
| UGAAACUAUUCUUUGGCAUUGGUGUCCAUGGCCCUAUACCGCCAUCUUACACGAAAGCCACAGAGUUGAAAGCCACAGAGUUGAAAGCCACAGAGUUAAGUGACCUCAGG | 0.334 |
| AGGCAGAGCUUGUGGAGAUUCAUGAAAGAGUCAUAGCCAGUUUGGCAUGCAGAGGUCUUCAGUCUUGCUUAUUCUUCUCCUGGGCUUCUUGACACAGGGGCAGAAGAAAC | 0.714 |
| ACAUAAAUCUAAUCAGAUAUCUUAUGUAGUCCAUCUCUGCUGGCUUUAGUAACUGCUCCUAAACUUUUUAACUCUAAAGGAGCGUGGAAAGCCCGCAUCACAGUGUUCAG | 0.3 |
| UCCUUUUUCCAUUUAUCUGUGGAAACCAACAGAUAUUGCUCUAUAUUUUUUGUAUUAGUAUGGUUUGAGACAACAUAUGGAAAAUGUUCACAUUUGUAGAUUAAGCUGGA | 0.999 |
| UCUGCUUCUCUGUAUUUUUCUUCUGUUAUCCCUGGGGGUGCUCAGGUUCACUUGAUUGUCUGUAUUUCUGUGUGGUUGUAGCAAGGACUCAGCCUCAUGUAGCACGAAUA | 0.975 |
| AUUCGAGACAGUGCUUCUGGAGGAGCCAUUGGAAAGACUGGAGAAGAUUCUAAUGGAUAGGAUUUAGAGAUGUGUUCUGUGUUCUUGACCAGUGAAGUAUGCUCUUGGGU | 1.04 |
| UUUGGUACAUUUUCAUAAAAUAUGAAGGGAUAACUACAAACUGGAGUAAAAAUGAUGGUAAUUAAAAAAAAUCCUCAGUAUCCCUAGCUUGUCUAUUAACUGUGAUAAUC | 0.448 |
| GGCUCUCAACUCAACUCCCUUUUUUAUUUAGUUCUAUUUGGAGGAGUUAUGUAUUUUUUACAUUAGUGCCAAGUAUAUAGAAGGAUGACAGCAAAAACAGUGCCUCUUUG | 0.87 |
| AUAUUUUCACAUUAGGUUGCUGUCUAAUUUUGGAGAGGGUCAGGAAUCGUUCUGGUGCCUUAAUGCACAGCUGGAAUUCAGGUAAACACAUCAGCUGUUGCUGGCGGUUG | 0.336 |
| AACUACUUAGCACUUCAGGGCAGAUUUUAGUUUUAUUUUCUAAAGUACUGAGCAGUGAUAUUCUUUGUUAAUUUGGACCAUUUUCCUGCAUUGGGUGAUCAUUCACCAGU | 0.705 |
| AAGGUGUGGUUCUCAGUGCCUGUCAUUGAUGUGUGUUCCCGUGCCCAGGCUGUCUCAGUGUCAUCAUGUUGCCAGGUCUUUGUGUUUCUGCAGCCCACAUGAUCCUUGAG | 0.355 |
| CUGCAUCUCCCCUGGCCCCGUUCCCUGCCCUCCUCCCUUCCCUGGGUGACUGCUCUGAGAGGCACUUCACUCACAGGCCUGUGGGAUGCUCCAUGGGGCCCUGCUGGCUC | 0.321 |

For quick reference, copied from above (study 4):
| Substitution | binding free energy change [kcal/mol] |
| --- | --- |
| P41M | 0.318 |
| R38F | 0.0902 |
| L49G | 0.821 |
| H68G | 1.44 |
| P41W | 0.492 |
| T81F | 0.281 |
| V20S | -0.0799 |
| L49Q | 0.739 |
| I2L | -0.0878 |
| R88N | 0.413 |
| E1C | 0.238 |
| F35G | 0.458 |
| G33R | 1.21 |
| V90M | -0.0926 |
| K47E | 0.0398 |
| G19A | 1.13 |
| V39R | 0.668 |
| G21V | 0.596 |
| K54S | 0.879 |
